Results collected from several papers.
Each line is one published result; not all experiments were run side by side. Several values in a cell are separate wells, animals, samples, runs or records.
Target: Serine/threonine-protein kinase WNK2 (WNK2, Homo sapiens, UniProt Q9Y3S1)

| SMILES | test | conditions | scale | measurement | result |
| --- | --- | --- | --- | --- | --- |
| CC(C)=CC1OC(C)(C)C2C=C3C(=O)C(Cl)=CC(O)C3C3C(O)C4OC4C(=O)C132 (centres unmarked) | cell-free assay, competition with immobilised ligand | 10 µM | – | remaining binding | 72% |
| CN1CCN(Cc2ccc(-c3ccc(CO[C@H]4CCC[C@@H]4NC(=O)c4cc(-c5cnn(C)c5)cnc4N)cc3)cc2)CC1 | enzyme activity, inhibitor | 0.1 µM | – | inhibition | -10% |
| O=C=[N][Ru-4]123([n]4c5ccc(O)cc5c5c6c(c7cc(F)c[n+]1c7c54)C(=O)NC6=O)[S+]1CC[S+]2CC[S+]3CC1 (centres unmarked) | enzyme activity | 100 nM, human enzyme, with: 10 µM ATP | relative to: untreated | remaining activity | 90% |
| Cc1nc2c(F)cc(-c3nc(Nc4ccc(CNC(=O)CCCCCCC(=O)NO)cc4)ncc3F)cc2n1C(C)C | enzyme activity, inhibitor | 1 µM | – | inhibition | 76% |
| NC(=O)[C@@H](O)C[C@H]1CCc2sc3ncnc(O[C@H]4CC[C@H](N5CCOCC5)CC4)c3c21 | enzyme activity, inhibitor | 10 µM | – | inhibition | 1% |
| Nc1ncc(-c2cc(-c3cnn(CC(F)(F)F)c3)ncc2F)nc1C(=O)NC1CNCC(F)C1 (centres unmarked) | enzyme activity | 1 µM | relative to: DMSO control | remaining activity | 101% |
| COc1c(Cl)cccc1Nc1c(-c2ccncc2C#C[C@@]2(C)CCCN2C(=O)/C=C/CN(C)C)[nH]c2c1C(=O)NCC2 | binding, competition with immobilised ligand | 3 µM | – | remaining binding | 83% |
| COc1ccc(NC(=O)Nc2ccc3c(c2)C(=O)N(C(C)CO)CC(C)C(CN(C)Cc2ccc4c(c2)OCO4)O3)cc1 (centres unmarked) | kinase activity, KinaseProfiler | 0.03 µM, species human | relative to: control | remaining activity | 91% |
| NC(=O)C[C@H]1CCc2sc3ncnc(O[C@H]4CC[C@H](N5CCOCC5)CC4)c3c21 | enzyme activity, inhibitor | 10 µM | – | inhibition | 5% |
| CNC(=O)C[C@H](Cc1ccc(C#N)cc1)NC(=O)c1cc(-c2ccc(CN[C@H](C)c3ccc(C)cc3)o2)ccc1Cl | enzyme activity, inhibitor | 1 µM | – | activity vs control | 110% |
| CNC(=O)C1CCN(c2cc(C)c(F)cc2NC(=O)c2ccc(-c3cc(O)ccc3C)c(C)c2)CC1 | binding, competition with immobilised ligand | 1 µM | – | remaining binding | 63% |
| Cc1cnc2nc1Nc1cccc(c1)COC/C=C/COCc1cc(ccc1OCCN1CCOCC1)N2 | binding, competition with immobilised ligand | 0.1 µM | – | remaining binding | 87% |
| O=C(Nc1ccc(Oc2ncnc3[nH]cc(-c4ccccc4)c23)c(F)c1)c1c2n(n(-c3cc(F)ccc3F)c1=O)CCCC2 | enzyme activity, inhibitor | 0.5 µM | – | inhibition | 29% |
| COc1c(OCCCN2CCOCC2)ccc2c1N=C(NC(=O)c1cnc(N)nc1)N1CCN=C21 | kinase activity, inhibitor | 1 µM | relative to: untreated control | remaining activity | 108% |
| O=C(Cc1ccc(OCc2ccccc2)cc1)NC1(C(=O)O)CCN(C(=O)c2ccc(-c3cccc(Cl)c3)cc2)CC1 | enzyme activity, inhibitor | 10 µM | – | activity vs control | 116% |
| C=CC(=O)N1Cc2nc(-c3cc(-c4cc(Cl)cnc4Cl)c(F)cc3F)n(-c3ccncn3)c2C1 | cell-free assay, inhibitor | 1 µM | – | inhibition | 6.2% |
| CCN1CCN(Cc2ccc(NC(=O)c3ccc(C)c(NC(=O)c4cncc(-c5cnn(C)c5)c4)c3)cc2C(F)(F)F)CC1 | binding, competition with immobilised ligand | 1 µM | – | remaining binding | 100% |
| Nc1ncc2c(n1)-c1c([nH]c3ccc(C4=CCOCC4)cc13)CCC2 | binding, competition with immobilised ligand | 1 µM | – | remaining binding | 92% |
| COc1cc(Nc2nccc(-c3cnn4nc(OC)ccc34)n2)cc(C(F)(F)F)c1 | binding, competition with immobilised ligand | 1 µM | – | remaining binding | 100% |
| C=CC(=O)N1CCCC(n2c(=O)c3ncccc3n(Cc3ccc(Oc4ccccc4)cc3)c2=O)C1 (centres unmarked) | cell-free assay, competition with immobilised ligand | 1 µM | – | remaining binding | 85% |
| COc1cc(Nc2nc(C)cc(-c3cnn4nc(OC)ccc34)n2)cc(C(F)(F)F)c1 | binding, competition with immobilised ligand | 1 µM | – | remaining binding | 100% |
| COCC12C(=O)NC3C4(C(OC)CC1O)C1CC5(O)C(OC)C(O)C(OC(C)=O)(C1C5OC(=O)c1ccccc1)C3(O)C(OC)C24 (centres unmarked) | kinase activity, inhibitor, ProQinase kinase profiling | 25 µM | relative to: control | remaining activity | 97% and 79% |
| CN1CC[C@@H](COc2cnc(C#N)cc2-c2ccn3nc(NC(=O)C4CC4)cc3c2)C1 | enzyme activity, inhibitor | 1 µM | – | inhibition | 4% |

Repeated from above:
| SMILES | test | conditions | scale | measurement | result |
| --- | --- | --- | --- | --- | --- |
| COCC12C(=O)NC3C4(C(OC)CC1O)C1CC5(O)C(OC)C(O)C(OC(C)=O)(C1C5OC(=O)c1ccccc1)C3(O)C(OC)C24 (centres unmarked) | kinase activity, inhibitor, ProQinase kinase profiling | 25 µM | relative to: control | remaining activity | 97% and 79% |
| CN1CC[C@@H](COc2cnc(C#N)cc2-c2ccn3nc(NC(=O)C4CC4)cc3c2)C1 | enzyme activity, inhibitor | 1 µM | – | inhibition | 4% |
